Measurements collected from several papers.
Organism: Staphylococcus aureus

Compound	assay	test system	setting	MIC
O=C(O)c1ccc(-n2cc(/C=N/Nc3cccc(Cl)c3F)c(-c3ccc4ccccc4c3)n2)cc1	microbial growth	ATCC700699	drug-resistant strain	0.78 µg/mL
CN(C)CCCNC(=O)[C@@H]1NC(=O)[C@@H]2Cc3ccc(cc3)Oc3cc4cc(c3O)-c3ccc5c(c[nH]c5c3)C[C@@H](NC(=O)C(N)c3ccc(O)cc3)C(=O)N[C@H](c3ccc(O)cc3)C(=O)N[C@H]4C(=O)N[C@@H](C(=O)N2C)c2ccc(cc2)Oc2cc1ccc2O (stereo partly shown)		ATCC 33591 MRSA, Mueller-Hinton broth		> 128 µg/mL
CN[C@@H]1[C@H](O)[C@H](NC)[C@H]2O[C@]3(O)[C@H](O[C@@H]2[C@H]1O)O[C@H](C)C[C@]3(O)CNCc1ccc(F)cc1		MSSA ATCC 29213		> 200 µg/mL
CCN(CC)CCCN1/C(=C/c2cc[n+](C)c3ccccc23)Sc2ccccc21	microbial growth, broth dilution	ATCC29213		2 µg/mL
O=C1c2ccccc2NC(c2ccccc2O)N1/N=C/c1ccccc1O (stereo not shown)	microbial growth, broth dilution		24 h, drug-resistant strain, clinical isolate	> 256 µg/mL
CCCCCCCCCCCCCC[S+]([O-])CC1OC(OC2C(N)CC(N)C(OC3OC(CN)C(O)CC3N)C2O)C(O)C(N)C1O (mixture of isomers)		methicillin-resistant		18.8 µg/mL
CC1=C[C@@H](C)[C@H]2[C@@H]3C(=O)C(Cl)(Cl)C(=O)[C@H](C)C(=O)O[C@@H](C)/C=C/C=C\[C@@H](C)[C@@H]3C=C[C@@H]2C1	microbial growth, broth dilution	MRSA	drug-resistant strain	0.05 µg/mL
CN[C@@H]1[C@H](O)[C@H](NC)[C@H]2O[C@]3(O)[C@H](O[C@@H]2[C@H]1O)O[C@H](C)C[C@@]3(O)CNCCc1ccc(F)cc1	microbial growth	MRSA	drug-resistant strain	25 µg/mL
NCCCC[C@@H]1NC(=O)[C@@H](CCCCN)NC(=O)[C@H](CCCCN)NC(=O)[C@@H](CCCCN)NC(=O)[C@H](Cc2c[nH]c3ccccc23)NC(=O)[C@@H](Cc2c[nH]c3ccccc23)NC(=O)[C@H](Cc2c[nH]c3ccccc23)NC(=O)[C@@H](Cc2c[nH]c3ccccc23)NC(=O)[C@@H](N)CSCc2ccc(cc2)CSC[C@@H](C(N)=O)NC(=O)[C@@H](CCCCN)NC1=O		COL MRSA		32 to 64 µg/mL
CC(C)C[C@@H]1NC(=O)[C@H](C)NC(=O)[C@H](NC(=O)[C@H](CO)NC(=O)[C@@H](CCCCN)NC(=O)[C@@H](CC(C)C)NC(=O)[C@@H](N)Cc2ccccc2)[C@H](C(N)=O)OC(=O)[C@H](C)NC1=O		MRSA ATCC 700698	TFA salt	> 32 µg/mL
CC[C@H](C)[C@@H]1NC(=O)[C@@H](CN)NC(=O)CNC(=O)[C@H](CC(=O)O)NC(=O)CNC(=O)[C@H](CC(=O)O)NC(=O)[C@H](CC(=O)O)NC(=O)[C@H]2CCCCN2C(=O)[C@@H](NC(=O)[C@H](CC(=O)O)NC(=O)/C=C/CCCCCCCCCC(C)C)CNC(=O)[C@@H]2CCCN2C1=O		MRSA USA300	16 h, 37 °C, together with: Ca2+ 10 mM	8 µg/mL
CC[C@H](C)[C@H](NC(=O)[C@H](CC(=O)O)NC(=O)[C@H](Cc1ccccc1)NC(=O)[C@H](CC(C)C)NC(=O)[C@@H](N)CCCCN)C(=O)N[C@H](C(=O)N[C@@H](CCCCN)C(=O)N[C@@H](CCCCN)C(=O)N[C@H](C(=O)N[C@H](C(=O)NCC(=O)N[C@@H](C)C(=O)N[C@@H](CC(C)C)C(=O)NCC(N)=O)C(C)C)C(C)C)C(C)C		SH1000 GFP-expressing, nutrient broth	20 h, 37 °C	> 100 µM
CC[C@H](C)[C@H](NC(=O)[C@@H](NC(=O)CN)C(C)C)C(=O)N[C@@H](Cc1ccccc1)C(=O)N[C@@H](CC(N)=O)C(=O)N[C@@H](C)C(=O)N[C@@H](CC(C)C)C(=O)N[C@@H](CCCCN)C(=O)NCC(=O)N[C@H](C(=O)N[C@@H](C)C(=O)N[C@@H](CCCCN)C(=O)N[C@H](C(=O)N[C@H](C(=O)N[C@@H](C)C(=O)N[C@@H](C)C(=O)N[C@@H](CCC(N)=O)C(=O)N[C@@H](CC(C)C)C(=O)N[C@@H](CC(C)C)C(=O)N[C@@H](CCCCN)C(=O)N[C@@H](CCCCN)C(=O)N[C@@H](C)C(=O)N[C@@H](CCCNC(=N)N)C(=O)N[C@H]1CSSC[C@@H](C(=O)O)NC(=O)[C@H](CO)NC(=O)[C@H](CCCCN)NC(=O)[C@H](CC(=O)O)NC(=O)[C@H](CC(C)C)NC(=O)[C@H](CCCCN)NC1=O)C(C)C)[C@@H](C)O)C(C)C		MRSA NCTC 12493, Mueller-Hinton broth	together with: CaCl2 2.5 mM	2 µM
CC[C@H](C)[C@H](NC(=O)[C@H](CCCCN)NC(=O)[C@H](CCCCN)NC(=O)[C@H](Cc1c[nH]c2ccccc12)NC(=O)[C@H](CC(N)=O)NC(=O)[C@@H](NC(=O)COCCOCCOCCOCCOCCOCCOC(=O)NCCCCCCNC(=O)NCCCCCCNC(=O)Nc1nc(=O)cc(C)[nH]1)C(C)C)C(=O)N[C@@H](CC(C)C)C(=O)NCC(=O)N[C@@H](CCCCN)C(=O)N[C@H](C(=O)N[C@H](C(=O)N[C@@H](CCCCN)C(=O)N[C@H](C(=O)N[C@H](C(=O)N[C@@H](CCCCN)C(N)=O)C(C)C)C(C)C)[C@@H](C)CC)[C@@H](C)CC		MRSA AMC 201, RPMI medium	24 h, 37 °C	7.5 µM
CC[C@H](C)[C@H](NC(=O)[C@H](CCCNC(=N)N)NC(=O)[C@H](CC(C)C)NC(=O)[C@H](CC(C)C)NC(=O)[C@H](C)NC(=O)[C@@H](NC(=O)[C@H](CCCCN)NC(=O)[C@H](CCCCN)NC(=O)[C@H](C)NC(=O)[C@@H](NC(=O)[C@H](Cc1c[nH]c2ccccc12)NC(=O)[C@@H](NC(=O)[C@H](Cc1ccc(O)cc1)NC(=O)[C@H](Cc1ccccc1)NC(=O)[C@H](CC(=O)O)NC(=O)[C@H](Cc1ccc(O)cc1)NC(=O)[C@@H](NC(=O)[C@H](CC(C)C)NC(=O)[C@H](CO)NC(=O)[C@H](C)NC(=O)[C@H](C)NC(=O)[C@@H](NC(=O)[C@@H](NC(=O)[C@@H](N)CC(C)C)[C@@H](C)CC)C(C)C)C(C)C)[C@@H](C)O)[C@@H](C)CC)C(C)C)C(=O)N[C@@H](C)C(=O)N[C@@H](CCCCN)C(=O)N[C@@H](CCCCN)C(=O)N[C@H](C(=O)N[C@@H](CC(C)C)C(=O)N[C@@H](Cc1ccc(O)cc1)C(=O)N[C@@H](CC(C)C)C(=O)N[C@@H](C)C(=O)N[C@@H](CCCNC(=N)N)C(=O)N[C@@H](CC(N)=O)C(=O)N[C@@H](C)C(=O)O)C(C)C		ATCC 25923	24 h	4 µM
COc1cc(/C=C/C(=O)NCCCCCC(=O)N[C@@H](CCCNC(=N)N)C(=O)N[C@@H](CC(C)C)C(=O)N[C@@H](CC(C)C)C(=O)N[C@@H](CCCNC(=N)N)C(=O)N[C@@H](CCCNC(=N)N)C(=O)N[C@@H](CC(C)C)C(=O)N[C@@H](CC(C)C)C(=O)N[C@@H](CCCNC(=N)N)C(N)=O)ccc1O	broth microdilution	ATCC 25923	24 h, 37 °C	36 µM
COc1ccc2ccc3c(c2c1)C=[N+]1C2CCCCC2[N+]2=Cc4ccc(C)cc4[O][Au-]21[O]3.F[P-](F)(F)(F)(F)F (stereo not shown)	bacterial growth, broth microdilution	vancomycin-intermediate	24 h	20 µM
CC[C@H](C)[C@H](N)C1=N[C@H](C(=O)N[C@@H](CC(C)C)C(=O)N[C@H](CCC(=O)O)C(=O)N[C@H](C(=O)N[C@H]2CCCCNC(=O)[C@H](CC(N)=O)NC(=O)[C@@H](CC(=O)O)NC(=O)[C@H](Cc3c[nH]cn3)NC(=O)[C@@H](Cc3ccc(-c4ccccc4)cc3)NC(=O)[C@H]([C@@H](C)CC)NC(=O)[C@@H](CCCN)NC2=O)[C@@H](C)CC)CS1	broth microdilution	ATCC 29213, LB medium	18 h, 37 °C, together with: ZnSO4 0.3 mM	1 µg/mL
C/C(=N/NC(=N)N)c1nnn(-c2ccc(C#CC(C)(C)O)cc2)c1C	broth microdilution	MRSA USA300 NRS384		16 µg/mL

Repeated from above:
Compound	assay	test system	setting	MIC
O=C1c2ccccc2NC(c2ccccc2O)N1/N=C/c1ccccc1O (stereo not shown)	microbial growth, broth dilution		24 h, drug-resistant strain, clinical isolate	> 256 µg/mL
